Measurements pooled from the literature.
± marks the error that the study gave.

Structure (SMILES)	test	system	setting	measurement	value
O=C(O[C@@H]1Cc2c(O)cc(O)cc2O[C@@H]1c1cc(O)c(O)c(O)c1)c1cc(O)c(O)c(O)c1	UV-Vis	PBS	0.02 mg/mL, 24 h, pH 7.4	degradation	50.7 ± 2.27%
C[C@@H](O)[C@H](NC(=O)OP(=O)(O)OC[C@H]1O[C@@H](n2cnc3c(N)ncnc32)[C@H](O)[C@@H]1O)C(=O)O	–	potassium phosphate buffer	time not given, pH 6, -80 °C	degradation per freeze-thaw	~10%
CSCC[C@H](N)C(=O)N[C@@H](Cc1ccc(O)cc1)C(=O)N[C@@H](Cc1ccccc1)C(=O)O	HPLC	solution	1 mg/mL, 60 days, 25 °C	degradation	5.57%
COC(=O)C1CN1S(=O)(=O)c1ccc2c(N(C)C)cccc2c1 (stereo not shown)	ring opening	aqueous Tris-HCl buffer	3.5 h, pH 7.4, without DTT	degradation	16%
CCCC(CCC)C(=O)[O][Pt]([NH2])([NH2])([Cl])([Cl])[O]C(=O)c1ccccc1OC(C)=O	HPLC	phosphate buffer	1 day, pH 7, 37 °C	degradation	~20%
CCCC[C@H](NC(=O)[C@H](CC(=O)O)NC(=O)[C@H](CC(=O)O)NC(=O)[C@H](CCC(=O)O)NC(=O)[C@H](Cc1ccc(O)cc1)NC(=O)[C@H](CC(=O)O)NC(=O)[C@H](CC(=O)O)NC(=O)[C@H](CCC(=O)O)NC(=O)[C@H](CC(C)C)NC(=O)[C@H](CCC(=O)O)NC(=O)[C@H](CCC(=O)O)NC(=O)c1ccc2c(c1)C1(OC2=O)c2ccc(O)cc2Oc2cc(O)ccc21)C(=O)N[C@@H](CCC(=O)O)C(=O)N[C@@H](CCC(=O)O)C(N)=O	–	A-431 cell lysate	3 h, formation of 8-residue fragment	degradation rate	100 ± 8.2 fmol/min/mg
CCOC(=O)CCC(=O)Oc1ccc(/C=C/C(=O)/C=C(O)/C=C/c2ccc(OC(=O)CCC(=O)OCC)c(OC)c2)cc1OC	–	human plasma	1.5 µM, 37 °C	degradation rate constant	0.147 ± 0.027 min⁻¹
CC1=C(C=O)C(C)(C)CC=C1	–	simulated intestinal fluid	500 µM, 4 h, pH 6.8, 37 °C	degradation	68%
C#CCN(CCCNC(=O)CCCCC[N+]1=C(/C=C/C2=C(Cl)C(=C/C=C3\N(CCCCCC(=O)[O-])c4ccccc4C3(C)C)/CCC2)C(C)(C)c2ccccc21)CCCOc1ccc(Cl)cc1Cl	–	mouse plasma	high concentration	degradation half-life	22 h
COc1c2c(cc3oc(C)cc(=O)c13)OC(C(C)(C)O)C2 (stereo not shown)	–	rat plasma	15 min, 37 °C	degradation	≤ 36%
CC(C)Cc1ccc(C(C)C(=O)[O][Pt]([NH2])([NH2])([Cl])([Cl])[O]C(=O)CCCc2ccccc2)cc1 (stereo not shown)	HPLC	phosphate buffer	1 day, pH 7, 37 °C	degradation	~25%
CC(C)C(N)C(=O)OCC(=O)C1(O)CCC2C3CCC4=CC(=O)C=CC4(C)C3C(O)CC21C (stereo not shown)	–	SIRC cell homogenate	pH 7.4, 37 °C, protein 0.5 mg/mL	degradation rate constant	0.0416 ± 0.0005 min⁻¹
C[C@H](NC(=O)[C@H](Cc1cnc[nH]1)NC(=O)[C@H](CO)NC(=O)[C@@H](N)CC(=O)O)C(=O)N[C@@H](CCCCN)C(=O)N[C@@H](CCCNC(=N)N)C(=O)N[C@@H](Cc1cnc[nH]1)C(=O)N[C@@H](Cc1cnc[nH]1)C(=O)NCC(=O)N[C@@H](Cc1ccc(O)cc1)C(=O)N[C@@H](CCCCN)C(=O)N[C@@H](CCCNC(=N)N)C(=O)N[C@@H](CCCCN)C(=O)N[C@@H](Cc1ccccc1)C(=O)N[C@@H](Cc1cnc[nH]1)C(=O)N[C@@H](CCC(=O)O)C(=O)N[C@@H](CCCCN)C(=O)N[C@@H](Cc1cnc[nH]1)C(=O)N[C@@H](Cc1cnc[nH]1)C(=O)N[C@@H](CO)C(=O)N[C@@H](Cc1cnc[nH]1)C(=O)N[C@@H](CCCNC(=N)N)C(=O)NCC(=O)N[C@@H](Cc1ccc(O)cc1)C(=O)O	PAGE band density	whole saliva supernatant G2 and G3, diluted 1:10	100 µg/mL, 48 h, 37 °C	degradation	~89.1%
